# Published values from different studies.
# Compare with care: the assays were run in different laboratories. Several values in a cell are separate wells, animals, samples, runs or records. ± gives the spread as reported.
Structure (SMILES),organism,test,test system,conditions,how to read,quantity,value
CC(=O)N[C@@H](CSC(=O)[C@]1([C@@H](O)C(C)C)NC(=O)[C@H](C)[C@@H]1O)C(=O)O,Mus musculus,"gene silencing, high-content imaging",LDR reporter GFP cells,"30 h, retest, mean of two runs",,Emax,72%
COc1cc2c(cc1Nc1nc(Nc3ccsc3C(N)=O)c3cc[nH]c3n1)N(C(=O)CN(C)C)CCC2(C)C,Trypanosoma brucei,,,unit not given,reference: pEC50 T. brucei minus pTC50 HepG2,selectivity,1.5
CC(C)n1ncc2c(C(=O)NCC3(C)CNC3)cc(C3CC3)nc21,Enterovirus D68,cytopathic effect,"RD, US/IL/14-18956",5 nM,,cell protection,-0.844% and -1.27%
COc1cc2c(cc1NC(=O)c1ccc(C(C)(C)C)cc1)CCCCC2,West Nile virus,viral replication,HEK293,,,EC90,0.6 µM
Cn1nc(-c2ccc(Cl)cc2)nc2c(=O)n(C)c(=O)nc1-2,Mus musculus,"gene silencing, high-content imaging",LDR reporter GFP cells,retest run 2,,maximal activity,55%
COC(=O)[C@H](Cc1ccc(O)cc1)NCc1cc2ccccc2nc1SC,Pseudomonas aeruginosa,,,"32 µg/mL, with: pentamidine 50 µM",reference: control,growth,91.3%
Cc1c2ccc(N(C)c3ccnc(Nc4cccc(S(N)(=O)=O)c4)n3)cc2nn1C,Trypanosoma brucei,,,unit not given,reference: pEC50 T. brucei minus pTC50 HepG2,selectivity,0.8
CC(C)C[C@@H](C=O)NC(=O)[C@H](CC(C)C)NC(=O)[C@H](CC(C)C)NC(=O)OCc1ccccc1,Mus musculus,"gene silencing, high-content imaging",LDR reporter GFP cells,"30 h, retest run 2",,Emax,130%
CC(=O)NC[C@H]1CN(c2ccc(N3CCOCC3)c(F)c2)C(=O)O1,Staphylococcus aureus,broth microdilution,methicillin-susceptible isolates,,,MIC50,0.5 µg/mL
NS(=O)(=O)c1ccc(Nc2ncc(-c3ccccc3)o2)cc1,Trypanosoma brucei,,,unit not given,reference: pEC50 T. brucei minus pTC50 HepG2,selectivity,> 2.2
COc1ccc(CN2C[C@H]3CC[C@@H]4[C@](C)(CO)[C@H](O)CC[C@@]4(C)[C@@H]3C[C@@H]2C2=CCOC2=O)cc1,Human coronavirus 229E,cytopathic effect,MRC5,"25 µM, corrected for cytotoxicity",,inhibition,3.8%
CN1CCC(n2cnc(-c3ccc(F)cc3)c2-c2ccnc(Nc3ccccc3)n2)CC1,Trypanosoma brucei,,,unit not given,reference: pEC50 T. brucei minus pTC50 HepG2,selectivity,2.1
N=C(N)c1ccc(OCc2ccccc2COc2ccc(C(=N)N)cc2)cc1,Escherichia coli,outer membrane permeabilization,BW25113,"60 min, with: NPN 0.01 mM",,concentration for maximal NPN uptake,3.1 µg/mL
O=c1[nH]c(CCl)nc2scc(-c3ccc(C(F)(F)F)cc3)c12,Trypanosoma brucei brucei,,449 Lister 427 bloodstream form,24 h,reference: EC50 HEK293 over EC50 T. brucei,selectivity index,1.8 ± 0.5
O=C(O[C@@H]1O[C@@H]2COC(=O)c3cc(O)c(O)c(O)c3-c3c(cc(O)c(O)c3O)C(=O)O[C@H]([C@H]1O)[C@@H]2O)c1cc(O)c(O)c(O)c1,Streptococcus mutans,,,"MIC, first 15 min, with: glucose 1%",,initial rate of glycolytic pH drop,0.031 pH units/min
CO[C@H]1/C=C/O[C@@]2(C)Oc3c(C)c(O)c4c(c3C2=O)C2=NC3(CCN(CC(C)C)CC3)NC2=C(NC(=O)/C(C)=C\C=C\[C@H](C)[C@H](O)[C@@H](C)[C@@H](O)[C@@H](C)[C@H](OC(C)=O)[C@@H]1C)C4=O,Mycobacteroides abscessus,"intracellular growth, Hill fit","THP-1 derived macrophages, ATCC 19977",,,IC90,4.3 µM
O=C1C(Cl)=C(n2ccnc2)C(=O)c2ccccc21,Aspergillus niger,,ITCC 7787,10 µg/mL,,zone of inhibition,10 mm
COc1ccc2c(c1OC)C(CO)N(C)c1c-2ccc2cc3c(cc12)OCO3 (stereo not drawn),Apostichopus japonicus,cell viability,,,,optimal concentration,30 µM
Nc1nc(-c2ccccc2)nc2[nH]nc(Nc3ccc(C(F)(F)F)cc3)c12,coxsackievirus B3,,"31-1-93, NMRI mice, CVB3 chronic myocarditis","oral, 100 mg/kg twice daily, day 5, dosed days 1 to 7, score scale 0 to 7",direction not given,clinical score,0.56
Cc1nc2[nH]c(=O)n(O)c(=O)c2s1,Digitaria adscendens,glasshouse pot,,"750 g/ha, 21 days, pre-emergence",,inhibition,0%
CC(C)C[C@@H](/C=C/S(C)(=O)=O)NC(=O)[C@H](CC(C)C)NC(=O)[C@H](CC(C)C)NC(=O)OCc1ccccc1,Mus musculus,"gene silencing, high-content imaging",LDR reporter GFP cells,retest run 2,,maximal activity,107%
C=CC[C@@H]1c2ccc(OC)c(OC)c2CN2CCc3cc4c(cc3[C@H]12)OCO4,Staphylococcus aureus,,"P2rx7+/+ mice, skin wound infection","dose not given, day 2",reference: day 0,relative wound size,0.78 and 0.94 and 0.66 and 0.93 and 0.95
C[n+]1cc(NC(=O)c2ccc3ccc4ccc(C(=O)Nc5cc6ccccc6[n+](C)c5)nc4c3n2)cc2ccccc21,Trypanosoma brucei,RNA-seq,Lister 427 bloodstream form,"2 × EC50, 4 h, ChIP-seq G4 peak overlap",,upregulated G4-containing genes,11 genes
COc1cc(Nc2ncc3c(C)nc(-c4cccc(C(F)(F)F)c4)n3n2)cc(OC)c1OC,Trypanosoma brucei,,,unit not given,reference: pEC50 T. brucei minus pTC50 HepG2,selectivity,2.5
CN[C@H](CC(C)C)C(=O)N[C@H]1C(=O)N[C@@H](CC(N)=O)C(=O)N[C@H]2C(=O)N[C@H]3C(=O)N[C@H](C(=O)N[C@H](C(=O)O)c4cc(O)cc(O)c4-c4cc3ccc4O)[C@H](O)c3ccc(c(Cl)c3)Oc3cc2cc(c3O[C@@H]2O[C@H](CO)[C@@H](O)[C@H](O)[C@H]2O[C@H]2C[C@](C)(N)[C@H](O)[C@H](C)O2)Oc2ccc(cc2Cl)[C@H]1O,Staphylococcus aureus,,"MRSA, 10 isolates",serum 25%,,MIC50,4 µg/mL
C[C@@]12COCO[C@@H]1CC[C@]1(C)[C@@H]2CC[C@@H]2CN(Cc3ccc(F)cc3)[C@@H](C3=CCOC3=O)C[C@H]21,Human coronavirus 229E,cytopathic effect,MRC5,"25 µM, corrected for cytotoxicity",,inhibition,36.3%
CC(=O)N1CCC(C(=O)N2CCN3C(=O)c4cc(-c5ccccc5)ccc4NC(=O)C3C2)CC1 (stereo not drawn),Caenorhabditis elegans,,N2,12.5 µM,,median lifespan,19 days
CCn1c(=O)c(-c2cc[nH]n2)cc2c(C)nc(N)nc21,Enterovirus A71,"viral replication, plaque",,4 µM,,plaque formation decrease,~90%
O=c1oc2c(O)c(O)cc3c(=O)oc4c(O)c(O)cc1c4c23,Streptococcus mutans,,,"MIC, first 15 min, with: glucose 1%",,initial rate of glycolytic pH drop,0.04 pH units/min
CC(C)CCN1C[C@H]2CC[C@@H]3[C@]4(C)COC(C)(C)O[C@@H]4CC[C@@]3(C)[C@@H]2C[C@@H]1C1=CCOC1=O,Human coronavirus 229E,cytopathic effect,MRC5,"25 µM, corrected for cytotoxicity",,inhibition,10.3%
CC1=C(C(=O)Nc2ccc3[nH]ncc3c2)C(c2ccc(F)cc2)NC(c2ccc(C(F)(F)F)nc2)=N1 (stereo not drawn),Trypanosoma brucei,,,unit not given,reference: pEC50 T. brucei minus pTC50 HepG2,selectivity,> 1.3
CC(=Nc1ccc(N=Cc2cnccn2)cc1)N(C)C,Necator americanus,,"hamster (Mesocricetus auratus), infected","oral, 50 mg/kg single dose, 6 h",,anthelmintic rate,98.3 ± 1.7%
O=C1O[C@H]2[C@@H]3OC(=O)c4cc(O)c(O)c(O)c4-c4c(O)c(O)c5oc(=O)c6c(c(O)c(O)c7oc(=O)c4c5c76)-c4c(cc(O)c(O)c4O)C(=O)OC[C@H]3OC(O)[C@@H]2OC(=O)c2cc(O)c(O)c(O)c2-c2c1cc(O)c(O)c2O (mixture of isomers),Streptococcus mutans,broth microdilution,,,,MBC/MIC ratio,2
O=c1[nH]c2ncsc2c(=O)n1O,Digitaria adscendens,glasshouse pot,,"1500 g/ha, 21 days, pre-emergence",,inhibition,2.3%
COC(=O)[C@@H](NCc1cc2ccccc2nc1OCc1ccccc1)C(C)C,Pseudomonas aeruginosa,,,"64 µg/mL, with: pentamidine 50 µM",reference: control,growth,91.7%
CC1(C)OC[C@@]2(C)[C@H]3CC[C@@H]4CN(Cc5ccccc5C5CC5)[C@@H](C5=CCOC5=O)C[C@H]4[C@]3(C)CC[C@H]2O1,Human coronavirus 229E,cytopathic effect,MRC5,"25 µM, corrected for cytotoxicity",,inhibition,76.4%
Cc1ccc(NC(=O)c2c(C)nc3sc(C(=O)NC4CCCC4)c(N)c3c2-c2ccco2)c(C)c1,Mus musculus,"gene silencing, high-content imaging",LDR reporter GFP cells,retest run 2,,maximal activity,61%
CCCN1CCCC(c2ccc(Nc3nc(Nc4cc(F)ccc4C(N)=O)c4cc[nH]c4n3)c(OC)c2)C1 (stereo not drawn),Trypanosoma brucei,,,unit not given,reference: pEC50 T. brucei minus pTC50 HepG2,selectivity,1.7
Cc1[nH]c2ccccc2c1-c1csc(-c2c[nH]c3ccccc23)n1,Human papillomavirus 16,viral genome amplification,differentiated W12E,,,IC50,~5 µM
CC(=O)OC[C@@]1(C)[C@H]2CC[C@@H]3CN(Cc4ccc(C)cc4)[C@@H](C4=CCOC4=O)C[C@H]3[C@]2(C)CC[C@H]1OC(C)=O,Human coronavirus 229E,cytopathic effect,MRC5,"25 µM, corrected for cytotoxicity",,inhibition,90.5%
COc1cc(/C=N/Nc2ncnc3c2cnn3C(C)C)ccc1O,Trypanosoma brucei,,,unit not given,reference: pEC50 T. brucei minus pTC50 HepG2,selectivity,> 2
CC(=O)OC[C@@]1(C)[C@H]2CC[C@@H]3CN(Cc4ccc([N+](=O)[O-])cc4)[C@@H](C4=CCOC4=O)C[C@H]3[C@]2(C)CC[C@H]1OC(C)=O,Human coronavirus 229E,cytopathic effect,MRC5,"25 µM, corrected for cytotoxicity",,inhibition,46.3%
COc1ccccc1OCC(=O)N/N=C/C=C/c1ccc([N+](=O)[O-])o1,Mus musculus,"gene silencing, high-content imaging",LDR reporter GFP cells,retest run 2,,maximal activity,225%
CCCCCCCCCC(=O)N[C@@H](Cc1c[nH]c2ccccc12)C(=O)N[C@H](CC(N)=O)C(=O)N[C@@H](CC(=O)O)C(=O)N[C@@H]1C(=O)NCC(=O)N[C@@H](CCCN)C(=O)N[C@@H](CC(=O)O)C(=O)N[C@H](C)C(=O)N[C@@H](CC(=O)O)C(=O)NCC(=O)N[C@H](CO)C(=O)N[C@@H]([C@H](C)CC(=O)O)C(=O)N[C@@H](CC(=O)c2ccccc2N)C(=O)O[C@@H]1C,Staphylococcus aureus,,SH1000,"with: phosphatidylcholine, molar ratio 0.5",,MIC,1 µg/mL
COc1ccc(OC)c(Nc2nc3nonc3nc2N2CCCC(C)C2)c1 (stereo not drawn),Mus musculus,"gene silencing, high-content imaging",LDR reporter GFP cells,retest run 1,,maximal activity,13%
O=C1OC[C@H]2OC(O)[C@H](O)[C@@H](O)[C@@H]2OC(=O)c2cc(O)c(O)c(O)c2-c2c(O)c(O)c3oc(=O)c4c(c(O)c(O)c5oc(=O)c2c3c54)-c2c1cc(O)c(O)c2O (mixture of isomers),Streptococcus mutans,broth microdilution,,,,MBC/MIC ratio,2
O=C(O)CCCCCN1C(=O)/C(=C\c2ccc(-c3ccc(Cl)cc3)o2)SC1=S,Mus musculus,"gene silencing, high-content imaging",LDR reporter GFP cells,retest run 2,,maximal activity,166%
COC[C@H]1O[C@@H]2O[C@@H]3[C@@H](OC)[C@@H](OC)[C@@H](O[C@@H]4[C@@H](OC)[C@@H](OC)[C@@H](O[C@@H]5[C@@H](OC)[C@@H](OC)[C@@H](O[C@@H]6[C@@H](OC)[C@@H](OC)[C@@H](O[C@@H]7[C@@H](OC)[C@@H](OC)[C@@H](O[C@@H]1[C@@H](OC)[C@H]2OC)O[C@@H]7COC)O[C@@H]6COC)O[C@@H]5COC)O[C@@H]4COC)O[C@@H]3COC,Escherichia coli,"LuxR reporter, agonist",DH5α sensor strain,10 µM,,bioluminescence,818 ± 34 RLU
